Published values pooled from the literature.
Each numbered part is a random draw from the data of one study; scales do not carry over between parts.

Set 1
Target: Histone acetyltransferase KAT6A, winged helix 1, GST fusion (KAT6A, Homo sapiens, UniProt Q92794, residues 1-85)
Method: protein binding microarray
Molecule type: double-stranded DNA, one strand shown
Medium: in vitro
Tested at: not given
Notes: 8-mer, flanks averaged, mean of 2 arrays, mostly near background
Relative to: not given
Reading: higher = stronger binding
Construct (chain): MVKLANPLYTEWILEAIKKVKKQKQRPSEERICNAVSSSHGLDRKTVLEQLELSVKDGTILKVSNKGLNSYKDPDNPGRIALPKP
Sequence	E-score
ACACTATG	-0.014
GAATCACA	-0.0356
CGCCCAAC	0.0228
CGTTGGGA	-0.0576

Set 2
Target: Sal-like protein 4, full length isoform A (SALL4, Homo sapiens, UniProt Q9UJQ4, residues 1-1053)
UniProt Q9UJQ4, sequence (whole entry, looked up): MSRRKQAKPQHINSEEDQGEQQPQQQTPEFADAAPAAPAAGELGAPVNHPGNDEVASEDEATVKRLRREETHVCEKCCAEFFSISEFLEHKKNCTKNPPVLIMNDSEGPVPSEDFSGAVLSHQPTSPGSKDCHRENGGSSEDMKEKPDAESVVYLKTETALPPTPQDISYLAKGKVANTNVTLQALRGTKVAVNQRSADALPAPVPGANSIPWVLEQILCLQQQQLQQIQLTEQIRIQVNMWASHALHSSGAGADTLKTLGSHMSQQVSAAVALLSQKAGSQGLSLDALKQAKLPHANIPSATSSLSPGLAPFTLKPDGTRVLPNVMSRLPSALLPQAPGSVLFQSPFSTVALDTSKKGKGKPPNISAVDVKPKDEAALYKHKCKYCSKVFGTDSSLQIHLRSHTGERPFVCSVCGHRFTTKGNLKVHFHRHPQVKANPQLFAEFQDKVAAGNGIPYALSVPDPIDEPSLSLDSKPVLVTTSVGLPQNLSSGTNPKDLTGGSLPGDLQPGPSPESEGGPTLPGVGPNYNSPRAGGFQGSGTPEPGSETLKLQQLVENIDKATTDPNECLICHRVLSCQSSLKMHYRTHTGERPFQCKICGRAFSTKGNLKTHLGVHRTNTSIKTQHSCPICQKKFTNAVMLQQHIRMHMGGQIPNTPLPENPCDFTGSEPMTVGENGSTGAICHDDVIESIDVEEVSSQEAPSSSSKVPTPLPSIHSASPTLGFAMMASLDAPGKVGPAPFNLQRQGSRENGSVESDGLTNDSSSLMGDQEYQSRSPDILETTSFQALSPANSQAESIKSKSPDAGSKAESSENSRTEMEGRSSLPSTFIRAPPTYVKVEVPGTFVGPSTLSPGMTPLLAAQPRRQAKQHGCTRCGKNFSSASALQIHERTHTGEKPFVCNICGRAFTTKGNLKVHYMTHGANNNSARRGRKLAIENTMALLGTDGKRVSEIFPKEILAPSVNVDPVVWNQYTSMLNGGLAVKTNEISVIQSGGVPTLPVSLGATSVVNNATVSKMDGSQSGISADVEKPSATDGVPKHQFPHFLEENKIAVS
Method: universal PBM
Molecule type: double-stranded DNA, one strand shown
Medium: in vitro
Tested at: 600 nM
Notes: 8-mer, flanks averaged, mean of replicates
Reading: higher = stronger binding
Sequence	E-score
AGCTGACC	-0.156
ATACGCGG	-0.0909
GGATTGTA	0.214
GTCCTCAC	-0.00837

Set 3
Target: Interferon regulatory factor 5, full length, phosphomimetic (IRF5, Homo sapiens, UniProt Q13568-2, residues 1-514, K96S/S451D/S453D/S456D/S462D)
Method: protein-binding microarray
Molecule type: double-stranded DNA, one strand shown
Medium: in vitro
Tested at: 250 nM
Notes: 60-bp whole probe
With: salmon DNA 0.4 mg/ml
Relative to: random background probes
Reading: higher = stronger binding
Sequence	log fluorescence [z-score]
GCCTAGCACTCAGATATCAGACTGGATTAGTGCTAGGTCTTGATTCGCTTGACGCTGCTG	0.0148
GCCTAGCACGACGGACTGGTCTTTCGGGACGTGCTAGTCTTGATTCGCTTGACGCTGCTG	1.65
GCCTAGCACGACGGTTACCTTTCCCTGACGTGCTAGGTCTTGATTCGCTTGACGCTGCTG	0.426

Single results of other studies
Substance	target	assay	system	conditions	how to read	measurement	value
PhoQ, residues 284 288 289 292 302 303 ALASRC	PhoP, residues 12 14 15 18 19 GQALL (Escherichia coli, UniProt P23836)	Sort-seq, measured: YFP reporter	E. coli	PhoQ-PhoP variant library, with: 10 µM Mg2+	relative to: high Mg2+ state, higher = stronger signaling	fold induction	12.7

Some of these lines once more (set 2):
Sequence	E-score
ATACGCGG	-0.0909
